Experimental data from different studies.
Parts stem from different laboratories: compare values within a part only. Substitutions count along the parent as printed.

Series 1
Target: Prothrombin, mature alpha-thrombin (F2, Homo sapiens, UniProt P00734)
Technique: aptamer microarray, sandwich
Form: DNA with 2'F-ANA
Sample: in vitro
Concentration: 200 nM
Notes: whole 15-mer aptamer, many near background
With: Cy3 exosite-II aptamer, 400 nM
Direction: higher = stronger binding
Oligonucleotide: GGTTGGTGTGGTTGG
| Modification | mean fluorescence intensity |
| --- | --- |
| 2'F-ANA at 1 4 7 9 11 12 13 14 | 54.2 a.u. |
| 2'F-ANA at 1 3 5 6 7 9 11 13 15 | 49.6 a.u. |
| 2'F-ANA at 3 8 9 11 12 14 | 659 a.u. |
| 2'F-ANA at 5 9 12 13 15 | 77.8 a.u. |
| 2'F-ANA at 1 2 3 4 5 7 8 9 12 13 14 | 51.5 a.u. |
| 2'F-ANA at 2 6 11 15 | 320 a.u. |
| 2'F-ANA at 1 3 4 6 7 10 12 13 14 | 85.5 a.u. |
| 2'F-ANA at 2 5 6 10 12 14 | 49.5 a.u. |
| 2'F-ANA at 1 8 11 13 14 15 | 62.1 a.u. |
| 2'F-ANA at 2 5 8 10 11 13 14 | 43.7 a.u. |
| 2'F-ANA at 1 3 5 7 8 11 12 13 | 94 a.u. |
| 2'F-ANA at 2 6 7 8 10 11 13 14 15 | 77.6 a.u. |
| 2'F-ANA at 1 2 3 4 5 7 9 10 13 15 | 47.1 a.u. |
| 2'F-ANA at 3 4 6 7 10 15 | 269 a.u. |
| 2'F-ANA at 2 4 7 8 9 11 12 14 15 | 126 a.u. |
| 2'F-ANA at 1 2 9 12 15 | 369 a.u. |
| 2'F-ANA at 4 5 8 10 12 13 15 | 50.3 a.u. |
| 2'F-ANA at 1 4 5 7 8 9 10 14 15 | 46.7 a.u. |
| 2'F-ANA at 2 4 5 6 8 9 10 12 13 15 | 82.8 a.u. |
| 2'F-ANA at 1 2 3 4 5 6 14 15 | 46.7 a.u. |
| 2'F-ANA at 1 6 7 9 10 11 | 52.4 a.u. |
| 2'F-ANA at 2 8 9 10 15 | 144 a.u. |
| 2'F-ANA at 1 2 3 5 7 8 10 12 13 14 15 | 47.4 a.u. |
| 2'F-ANA at 2 3 7 8 11 13 14 15 | 419 a.u. |
| 2'F-ANA at 2 3 6 8 9 13 | 568 a.u. |

Series 2
Target: Sal-like protein 4, full length isoform A (SALL4, Homo sapiens, UniProt Q9UJQ4, residues 1-1053)
Chain of UniProt Q9UJQ4 (whole entry, looked up): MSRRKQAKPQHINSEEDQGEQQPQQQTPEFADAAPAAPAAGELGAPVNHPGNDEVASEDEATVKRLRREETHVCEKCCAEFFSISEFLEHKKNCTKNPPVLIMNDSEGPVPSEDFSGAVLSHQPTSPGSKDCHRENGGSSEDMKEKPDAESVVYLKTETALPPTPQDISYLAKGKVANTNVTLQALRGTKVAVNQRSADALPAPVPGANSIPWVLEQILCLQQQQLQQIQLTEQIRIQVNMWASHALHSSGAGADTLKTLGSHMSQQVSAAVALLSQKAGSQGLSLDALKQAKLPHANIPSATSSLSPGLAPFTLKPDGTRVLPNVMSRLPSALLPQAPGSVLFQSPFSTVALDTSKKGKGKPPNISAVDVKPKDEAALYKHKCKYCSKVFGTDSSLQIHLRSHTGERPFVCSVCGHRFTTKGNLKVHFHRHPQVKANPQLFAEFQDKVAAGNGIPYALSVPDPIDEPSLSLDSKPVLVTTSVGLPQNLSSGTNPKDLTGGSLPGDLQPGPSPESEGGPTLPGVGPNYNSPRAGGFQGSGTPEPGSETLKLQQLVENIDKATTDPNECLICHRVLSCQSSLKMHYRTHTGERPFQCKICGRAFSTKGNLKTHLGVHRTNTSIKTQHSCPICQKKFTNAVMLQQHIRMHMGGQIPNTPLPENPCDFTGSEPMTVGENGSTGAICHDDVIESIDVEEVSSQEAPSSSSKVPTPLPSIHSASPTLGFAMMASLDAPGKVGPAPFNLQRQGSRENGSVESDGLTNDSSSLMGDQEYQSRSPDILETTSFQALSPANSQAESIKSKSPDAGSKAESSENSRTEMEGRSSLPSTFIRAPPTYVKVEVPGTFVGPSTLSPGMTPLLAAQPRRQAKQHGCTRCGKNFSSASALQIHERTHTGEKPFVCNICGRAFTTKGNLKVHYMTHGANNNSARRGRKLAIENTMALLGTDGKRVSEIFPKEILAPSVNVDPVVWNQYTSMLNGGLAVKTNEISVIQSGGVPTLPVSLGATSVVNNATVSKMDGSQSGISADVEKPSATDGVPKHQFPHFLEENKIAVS
Technique: universal PBM
Form: double-stranded DNA, one strand shown
Sample: in vitro
Concentration: 600 nM
Notes: 8-mer, flanks averaged, mean of replicates
Direction: higher = stronger binding
| Oligonucleotide | E-score |
| --- | --- |
| AGCGCATA | 0.185 |
| ATGTGGAG | 0.0655 |
| ACTGCGCA | 0.0386 |
| CTTTAGAC | 0.0805 |
| GGTTGTTA | 0.161 |
| GCGCCGAC | -0.223 |
| AGTAGTAG | 0.0889 |
| ACTCTGCC | 0.00692 |
| CAGCGGAG | -0.288 |
| CTGAAGTC | 0.00462 |
| CAGTGTGG | -0.0751 |
| AGCATTTC | 0.235 |
| AGAGAAAT | 0.149 |
| AATTCTTC | 0.121 |
| CTTCAGTA | 0.114 |
| AGGTGCAA | -0.0675 |
| ACAGTGGA | -0.0145 |
| AGGTCCAC | -0.247 |
| CAATTGTG | 0.106 |

Series 3
Target: RNA binding protein fox-1 homolog 2, RRM domain, GST-SBP tag (RBFOX2, Homo sapiens, UniProt O43251-10, residues 100-194)
Technique: RNA Bind-n-Seq
Form: RNA
Sample: in vitro
Concentration: 365 nM
Notes: natural RNA segment, single round, ends assumed
Reference: no-protein control
Direction: higher = stronger binding
Construct (chain): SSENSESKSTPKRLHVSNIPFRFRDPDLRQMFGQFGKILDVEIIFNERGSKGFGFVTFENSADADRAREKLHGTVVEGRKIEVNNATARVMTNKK
| Oligonucleotide | RBNS enrichment (R) |
| --- | --- |
| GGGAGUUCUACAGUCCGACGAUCUUCUCUUCUACAAAGACCCCAGCAGGAGUGGGAGGGUCUGCAAUGGCAUCGCCCUGUCCUGCCUUGGCCAGAAGCCUGGAGCUUUGGUUUGAGGAGGUAGAGAUAUGUGUUGGAAUUCUCGGGUGCCAA | 0.282 |
| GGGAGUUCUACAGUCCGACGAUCAGGUUUAAAGUAUUUAAAAUAUAGUUACCUAAUUGUAAAUAGGCUGUUAACCAAAAGAGCUUCCCCUCCCCCAGUUUUCUUUUAUGACCACUGAUGACUGCGGCUGUCUCUGGAAUUCUCGGGUGCCAA | 0.368 |
| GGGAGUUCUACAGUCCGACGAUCACCUGCUGGAAGCUGCCAGCUGCCCGGCUGGCAAUGGUGUGAGUGUCUUGGCCCUGUCCCUGCCCUGGGGUCCAGCAGGUCAUCCCUCCCUUCUUCUCUCUCCUUUGGCGUGGAAUUCUCGGGUGCCAA | 0.556 |
| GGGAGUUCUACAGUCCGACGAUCAUUAUCAAGUUUCAAAGACCUGUGUCAACCAUACAGCAAAGGCAGACCCCAUAACGACGUCCCACAAAAUGGAAAUAAAACGCAAAAUCUCUUUAGCAUUGUGUAAAUAAUGGAAUUCUCGGGUGCCAA | 0.351 |
| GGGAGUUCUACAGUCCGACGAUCAACCUGUCCCUUUCCCUGCCAGCAAACCCCACCACCCUAAGAGAAAUUUUAGCUUAUAUAUGACGGUAUAUUUACAAAAAGAGAAAGAGAAAAUCUGGUAUUUGCAAUGAUGGAAUUCUCGGGUGCCAA | 0.43 |
| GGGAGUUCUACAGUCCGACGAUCUCUGCAAGGCCCUUGUGGGCACGAGAGUGCGGCCCUUGCUGCUGGAGAUCUGAGGUCACUGCUGUGAGCUGGGAGAACUGCUGUGUACCUCUUGCUGCCAGCACCCAACAUGGAAUUCUCGGGUGCCAA | 0.897 |
| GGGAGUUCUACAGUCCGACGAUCGCUCAGGUGAUGCCGGCCACCAGCAAUGCCUGGCCUGGUAGCUCCGCUUCUGCUUUCACCAAGAGAGUGUUUCUUCACUCAACUCAGGUGGCAUUUGGGGUGACAUCUCAUGGAAUUCUCGGGUGCCAA | 0.183 |
| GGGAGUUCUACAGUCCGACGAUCACAAUGAUAUCUGUAUGUCACUGUAAUGUUGGCCUUCGUGGGGAACCACACUUGGUGGAGCCCGAUUCCCUUGUCUCAGACCAUGGUUAGUUACAUAAUUUUAUGGACUAUGGAAUUCUCGGGUGCCAA | 0.264 |

Series 4
Target: CCNE1, cyclin fold, Cln2 fusion (human)
Technique: yeast growth competition, sequencing
Sample: yeast
Notes: weak parent motif
Reference: not given
Direction: higher = stronger binding
Parent: CDC6 docking peptide (human); TLKGRRLVFDNQL
| Variant | normalised enrichment score |
| --- | --- |
| N11E | 0.661 |
| D10W | 0.482 |
| R6W | -0.539 |
| R6D | -0.47 |
| G4M | 1.01 |
| L2A | -0.178 |
| R6S | -0.462 |
| D10V | 0.228 |
| L7D | 0.215 |
| L7N | 0.0867 |
| V8W | 0.914 |
| N11K | -0.136 |
| N11V | 0.321 |
| T1R | 0.345 |
| G4E | -0.275 |
| L13M | 0.177 |
| G4Y | 0.415 |
| L13H | -0.478 |

Series 5
Target: Histone acetyltransferase KAT6A, winged helix 1, GST fusion (KAT6A, Homo sapiens, UniProt Q92794, residues 1-85)
Technique: protein binding microarray
Form: double-stranded DNA, one strand shown
Sample: in vitro
Concentration: not given
Notes: 8-mer, flanks averaged, mean of 2 arrays, mostly near background
Reference: not given
Direction: higher = stronger binding
Residues (chain): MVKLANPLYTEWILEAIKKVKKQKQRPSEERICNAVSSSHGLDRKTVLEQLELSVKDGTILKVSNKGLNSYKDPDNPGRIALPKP
| Oligonucleotide | E-score |
| --- | --- |
| TCGACACA | -0.155 |
| AATGGAAC | -0.166 |
| TCACTCAA | -0.205 |
| CACGCCGG | 0.347 |
| GGCCGCGA | 0.425 |
| ATAGCTTC | -0.164 |
| AGAGAAAG | -0.28 |
| AACGGGAC | 0.207 |
| AGGCACGC | 0.121 |
| AAAGCTTA | -0.194 |
| GAGGTTAA | -0.102 |
| AATCGAAC | -0.12 |
| AGATTGTC | -0.0579 |
| GATGACTA | -0.00513 |
| GAAGGAAC | 0.066 |
| CTAAAAAA | -0.153 |
| CCTCGCTA | 0.0788 |
| CACTTGAA | -0.182 |
| CAGTCCCA | -0.29 |
| TGTTATAA | 0.00611 |
| ACAGCACA | -0.0712 |
| AGCACGGG | 0.222 |
| CGTGATGC | 0.0594 |
| AAGAGCTA | -0.0769 |
| AATGCAGA | -0.166 |

A few entries again (series 3):
| Oligonucleotide | RBNS enrichment (R) |
| --- | --- |
| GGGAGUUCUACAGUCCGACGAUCUUCUCUUCUACAAAGACCCCAGCAGGAGUGGGAGGGUCUGCAAUGGCAUCGCCCUGUCCUGCCUUGGCCAGAAGCCUGGAGCUUUGGUUUGAGGAGGUAGAGAUAUGUGUUGGAAUUCUCGGGUGCCAA | 0.282 |
| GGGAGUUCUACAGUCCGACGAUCAGGUUUAAAGUAUUUAAAAUAUAGUUACCUAAUUGUAAAUAGGCUGUUAACCAAAAGAGCUUCCCCUCCCCCAGUUUUCUUUUAUGACCACUGAUGACUGCGGCUGUCUCUGGAAUUCUCGGGUGCCAA | 0.368 |
| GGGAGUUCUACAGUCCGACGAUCACCUGCUGGAAGCUGCCAGCUGCCCGGCUGGCAAUGGUGUGAGUGUCUUGGCCCUGUCCCUGCCCUGGGGUCCAGCAGGUCAUCCCUCCCUUCUUCUCUCUCCUUUGGCGUGGAAUUCUCGGGUGCCAA | 0.556 |
| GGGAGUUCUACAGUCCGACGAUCAUUAUCAAGUUUCAAAGACCUGUGUCAACCAUACAGCAAAGGCAGACCCCAUAACGACGUCCCACAAAAUGGAAAUAAAACGCAAAAUCUCUUUAGCAUUGUGUAAAUAAUGGAAUUCUCGGGUGCCAA | 0.351 |
| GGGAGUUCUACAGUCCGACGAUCAACCUGUCCCUUUCCCUGCCAGCAAACCCCACCACCCUAAGAGAAAUUUUAGCUUAUAUAUGACGGUAUAUUUACAAAAAGAGAAAGAGAAAAUCUGGUAUUUGCAAUGAUGGAAUUCUCGGGUGCCAA | 0.43 |
| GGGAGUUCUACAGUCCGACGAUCUCUGCAAGGCCCUUGUGGGCACGAGAGUGCGGCCCUUGCUGCUGGAGAUCUGAGGUCACUGCUGUGAGCUGGGAGAACUGCUGUGUACCUCUUGCUGCCAGCACCCAACAUGGAAUUCUCGGGUGCCAA | 0.897 |
| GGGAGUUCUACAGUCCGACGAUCGCUCAGGUGAUGCCGGCCACCAGCAAUGCCUGGCCUGGUAGCUCCGCUUCUGCUUUCACCAAGAGAGUGUUUCUUCACUCAACUCAGGUGGCAUUUGGGGUGACAUCUCAUGGAAUUCUCGGGUGCCAA | 0.183 |
| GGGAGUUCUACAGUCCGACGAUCACAAUGAUAUCUGUAUGUCACUGUAAUGUUGGCCUUCGUGGGGAACCACACUUGGUGGAGCCCGAUUCCCUUGUCUCAGACCAUGGUUAGUUACAUAAUUUUAUGGACUAUGGAAUUCUCGGGUGCCAA | 0.264 |
